Measured values of several laboratories.
Lines come from different studies, so protocols differ. Numbers after ± are the reported error.

SMILES | test | system | setting | how to read | endpoint | result
O=C(Nc1cnccc1-c1ccc([18F])nc1)c1ccnc(NC(=O)C2CC2)c1 | PET imaging | FVB/NJ mice, both sexes, brain | intravenous, 120 min post-injection | – | median SUV | 0.035
CCCCN1C(=O)c2cccc3c(NCCCCCN4CCOCC4)ccc(c23)C1=O | – | water | pH 6.0 | – | absorption maximum | 452 nm
CCCC[C@H](OC(C)=O)c1ccccc1C(=O)O | – | beagle dogs, both sexes, whole blood | intravenous, 1.5 mg/kg single dose | – | MRT(0-inf) | 360 ± 294 min
O=C([O-])CN1CCN(CC(=O)[O-])CCN(CC(CCCc2ccccc2[N+](=O)[O-])N(CC(=O)[O-])CC(=O)[O-])CC1.[90Y+3] (stereo not shown) | TLC | human serum | 135 h, pH 7, 37 °C | – | intact radiolabelled complex | 99.8 ± 0.2%
CC(C)[C@H](NC(=O)[C@H](Cc1c[nH]c2ccccc12)NC(=O)[C@H](CCCNC(=N)N)NC(=O)[C@H](CCCNC(=N)N)NC(=O)[C@@H](NC(=O)[C@@H](NC(=O)[C@H](CCCNC(=N)N)NC(=O)[C@@H](NC(=O)[C@@H](NC(=O)[C@H](CCCNC(=N)N)NC(=O)[C@H](CCCNC(=N)N)NC(=O)[C@@H](NC(=O)[C@H](Cc1c[nH]c2ccccc12)NC(=O)[C@H](CCCNC(=N)N)NC(=O)[C@H](CCCNC(=N)N)NC(=O)[C@@H](NC(=O)[C@H](CCCNC(=N)N)NC(=O)[C@H](CCCNC(=N)N)NC(=O)[C@@H](NC(=O)[C@H](Cc1c[nH]c2ccccc12)NC(=O)[C@H](CCCNC(=N)N)NC(=O)[C@@H](N)CCCNC(=N)N)C(C)C)C(C)C)C(C)C)C(C)C)C(C)C)C(C)C)C(C)C)C(=O)N[C@@H](CCCNC(=N)N)C(=O)N[C@@H](CCCNC(=N)N)C(=O)O | – | CD-1 mice | intravenous, 15 mg/kg, 6-24 h | – | urinary sodium | < 100 mEq/L
CCCCN1C(=O)c2cccc3c(NCCCCCCCCCCN4CCOCC4)ccc(c23)C1=O | – | dichloromethane | – | – | absorption maximum | 429 nm
Cc1c(Cc2cccc(OC(C)(C)C(=O)O)c2)c2ccc(C(=O)N[C@@H](C)c3cc(C(C)(C)C)ccc3F)cc2n1CC(C)C | metabolic stability | mouse, liver microsomes | – | – | half-life | 43 min
CC(=O)N([O-])CCCCCNC(=O)CCC(=O)N([O-])CCCCCNC(=O)CCC(=O)N([O-])CCCCCN.[89Zr+4] | – | 0.9 % NaCl saline | 3 days, pH 4.5, 37 °C | – | intact compound | 98.3 ± 0.8%
CN(CCNc1ccc2ncc(-c3ccc(C(N)=O)cc3)n2n1)C(=O)OC(C)(C)C | – | mouse, SNL model, plasma | oral, 60 mg/kg, 120 min | – | drug concentration | 11 µM
Cc1n[nH]c(C)c1CCCOc1cc(C(=O)NCCCCC(NC(=O)CN2CCN(CC(=O)[O-])CCN(CC(=O)[O-])CCN(CC(=O)[O-])CC2)C(=O)NCC2CCC(C(=O)NC(Cc3ccc4ccccc4c3)C(=O)NCCCCC(NC(=O)NC(CCC(=O)O)C(=O)O)C(=O)O)CC2)ccc1F.[68Ga+3] (stereo not shown) | PET/CT | mice with 22Rv1 tumours | 2 h post-injection, no blocking | – | tumour uptake | 13.9 ± 2.68 %ID/g
CN1CCC[C@]1(C)/C=C/S(=O)(=O)NC(=O)Nc1c2c(cc3c1CCC3)CC=C2 | – | human, plasma | oral, 12.5 mg twice daily of parent drug, day 14, metabolite of dosed drug | – | AUC(0-tau) | 72100 ng·h/mL
CN[C@H](CC(C)C)C(=O)N[C@H]1C(=O)N[C@@H](CC(N)=O)C(=O)N[C@H]2C(=N)N[C@H]3C(=O)N[C@H](C(=O)N[C@H](C(=O)NCCC[N+](C)(C)C)c4cc(O)cc(O)c4-c4cc3ccc4O)[C@H](O)c3ccc(c(Cl)c3)Oc3cc2cc(c3O[C@@H]2O[C@H](CO)[C@@H](O)[C@H](O)[C@H]2O[C@H]2C[C@](C)(NCc3ccc(-c4ccc(Cl)cc4)cc3)[C@H](O)[C@H](C)O2)Oc2ccc(cc2Cl)[C@H]1O | – | mouse | intravenous, 10 mg/kg | – | clearance | 0.76 mL/min/kg
[2H]C1([2H])CC[C@@H](C[C@@H](C#N)NC(=O)[C@@H]2[C@@H]3[C@H](CN2C(=O)[C@@H](NC(=O)C(F)F)C(C)(C)C)C3(C)C)C(=O)N1 | – | mouse liver microsomes | scaled to liver | – | intrinsic clearance | 253 mL/min/kg
Cc1[nH]c(=O)c(CNC(=O)c2cc(Cl)c3c(c2C)O[C@@](C)([C@H]2CC[C@H](N(C)C)CC2)O3)c(C)c1O | – | human, plasma | oral, 200 mg, up to 0008 (unit not given) | – | share of plasma radioactivity | 1.1%
O=CC1C(=O)Nc2ccccc21 (stereo not shown) | chemical stability, HPLC-MS | borate buffered saline | pH 10.2, no N-acetyl-lysine | – | degradation rate constant | 0 h⁻¹
Cc1nc(N)nc2c1C(=O)N[C@@H](c1ccc(F)cc1-c1cccc(OCC[18F])n1)C2 | ex vivo biodistribution | C57BL/6 mice, pancreas | intravenous, 1 MBq, 30 min | – | SUV | 1.75 ± 0.13
CCCCN1C(=O)c2cccc3c(NCCCCCCN4CCOCC4)ccc(c23)C1=O | – | DMF | – | – | absorption maximum | 441 nm
Cc1cc(C)n(CCN(CCN)CCCCCCNC(=O)[C@@H](N)Cc2c[nH]cn2)n1.[99Tc+].[C-]#[O+].[C-]#[O+].[C-]#[O+] | – | BALB/c nude mice, A549 xenograft, tumour | dose not given, 4 h | reference: 15 min post-injection | tumour activity reduction | ~43%
CN1CCC[C@]1(C)/C=C/S(=O)(=O)NC(=O)Nc1c2c(cc3c1C(O)CC3)CCC2 (stereo partly shown) | – | human, plasma | oral, 100 mg twice daily of parent drug, day 1, metabolite of dosed drug | – | AUC(0-tau) | 123000 ng·h/mL

SMILES | test | system | setting | how to read | endpoint | result
CCCCN1C(=O)c2cccc3c(NCCN4CCOCC4)ccc(c23)C1=O | – | ethylene glycol | – | – | absorption maximum | 442 nm
COc1cccc(OC)c1-c1cc(C(=O)NC2(C(=O)O)C3CC4CC(C3)CC2C4)nn1-c1ccc(C(=O)NCCNC(=O)[C@H](CCCCNC(=O)[C@H](CC(C)C)NC(=O)C2OC2C(=O)O)NC(=O)CN2CCN(CC(=O)[O-])CCN(CC(=O)[O-])CCN(CC(=O)[O-])CC2)cc1C(C)C.[177Lu+3] (mixture of isomers) | – | mouse, HT-29 xenograft | 4 h post injection, biodistribution | reference: tumour over liver uptake | tumour-to-liver ratio | 8.92
Cc1cc(F)ccc1-c1cc(N2C[C@H]3COC(O)CN3C[C@H]2CO)ncc1N(C)C(=O)C(C)(C)c1cc(C(F)(F)F)cc(C(F)(F)F)c1 (stereo partly shown) | – | human male, plasma | oral, 120 mg, AUC(0-inf) based | – | share of total plasma radioactivity | ~11%
Cl.NCc1ccc2c(c1)CN(C1CCC(=O)NC1=O)C2=O (stereo not shown) | – | male Sprague-Dawley rat, whole blood | 3 h | – | remaining compound | 80%
CC(C)C[C@H](NC(=O)[C@H](CCCNC(=N)N)NC(=O)[C@H](Cc1ccccc1)NC(=O)[C@H](Cc1ccccc1)NC(=O)[C@@H](NC(=O)[C@H](COP(=O)(O)O)NC(=O)[C@@H](N)COP(=O)(O)O)[C@@H](C)O)C(=O)N[C@@H](Cc1ccccc1)C(=O)N[C@@H](CC(N)=O)C(=O)N[C@@H](CCCNC(=N)N)C(=O)N[C@@H](C)C(=O)N[C@@H](CCCCN)C(=O)N[C@@H](CCCNC(=N)N)C(=O)N[C@@H](Cc1c[nH]cn1)C(=O)N[C@@H](Cc1c[nH]cn1)C(=O)NCC(=O)N[C@@H](Cc1ccc(O)cc1)C(=O)N[C@@H](CCCCN)C(=O)N[C@@H](CCCNC(=N)N)C(=O)N[C@@H](CCCCN)C(=O)N[C@@H](Cc1ccccc1)C(=O)N[C@@H](Cc1c[nH]cn1)C(=O)O | HPLC-UV | human saliva | 2 h, 37 °C, together with: initial 1 mg/mL | – | peptide concentration | 0.95 mg/mL
CC[C@H](C)[C@@H]1NC(=O)[C@H](Cc2ccc(O)cc2)NC(=O)CCCSC[C@@H](C(=O)N(CC(=O)N[C@@H](CC(C)C)C(=O)NCC(N)=O)Cc2ccc(F)cc2)NC(=O)[C@H](CC(N)=O)NC(=O)[C@H](CCC(N)=O)NC1=O | – | human, plasma | intranasal, 400 µg, single dose | – | Cmax | 0.163 ng/mL
C=CC(=O)Nc1cc(Nc2nccc(-c3c[nH]c4ccccc34)n2)c(OC)cc1N(C)CCN(C)C | storage stability | human plasma | 30 d, -80 °C, HQC level | – | recovery | 97.8%
COC1C=COC2(C)Oc3c(C)c(O)c4c(c3C2=O)C2=NC3(CCN(CC(C)C)CC3)NC2=C(NC(=O)C(C)=CC=CC(C)C(O)C(C)C(O)C(C)C(OC(=O)c2cccnc2)C1C)C4=O (stereo not shown) | – | CD-1 mouse female, plasma | intravenous, 5 mg/kg | – | clearance | 2.98 mL/min/kg
COc1cc2ncnc(Oc3ccc(Nc4nccc5[nH]cc(-c6ccc(F)cc6)c(=O)c45)cc3F)c2cc1OC | – | male beagle dog, plasma | intravenous, 2 mg/kg | – | half-life | 495 min
CC(C)=CCC1=C([O-])C(=O)c2ccccc2C1=O.CC(C)=CCC1=C([O-])C(=O)c2ccccc2C1=O.O.[Cu+2].c1ccc(-c2ccccn2)nc1 | cyclic voltammetry | dichloromethane | 0.1 mM, together with: 0.1 M Bu4NPF6 | reference: Ag/AgCl in saturated KOH | cathodic peak potential | -1.42 V
[123I]c1ccc2nc(-c3ccc(-n4ccnn4)nc3)cn2c1 | – | male Wistar rat, lung | intravenous, 4 MBq, 1 h | – | tracer uptake | 0.142 %ID/g
C=C(NC(=O)c1csc(-c2nc3c(cc2O)-c2nc(cs2)C(=O)NC(C(C)O)C(=O)NC(=C(C)OC)c2nc(cs2)C(=O)NC2c4nc(cs4)C(=O)NC(COC(=O)c4c5c6c(cccc6n4O)COC(=O)C(OC4CC(C)(O)C(N(C)C)C(C)O4)C2OC5)c2nc-3cs2)n1)C(N)=O (stereo not shown) | – | cynomolgus monkey, both sexes, plasma | intravenous infusion, 1 mg/kg single dose | – | MRT(0-last) | 57.6 min
CCCC[C@H](NC(=O)COCCOCCNC(=O)CN1CCN(CC(=O)O)CCN(CC(=O)O)CC1)C(=O)N[C@H]1CC(=O)NCCCC[C@@H](C(N)=O)NC(=O)[C@H](Cc2c[nH]c3ccccc23)NC(=O)[C@H](CCCNC(=N)N)NC(=O)[C@@H](Cc2ccccc2)NC(=O)[C@H](Cc2c[nH]cn2)NC1=O [fluorine-18 labelled] | – | C57 mice B16/F10 melanoma, urine | intravenous, dose not given, 1 h, together with: NDP-MSH 10 µg blockade | – | urinary excretion | 77.8 ± 3.5%
C/C(N)=N/C(=N\S(=O)(=O)c1ccc(C(F)(F)F)cc1)N1C[C@H](c2ccccc2)C(c2ccc(Cl)cc2)=N1 | – | male C57BL/6 mouse, brain | intravenous, 10 mg/kg | – | Tmax | 30 min
COc1cccc(OC)c1-c1cc(C(=O)NC2(C(=O)O)C3CC4CC(C3)CC2C4)nn1-c1ccc(C(=O)N(C)CCOCCN(C)C(=O)[C@H](CCCCNC(=O)[C@H](CC(C)C)NC(=O)C2OC2C(=O)O)NC(=O)CN2CCN(CC(=O)[O-])CCN(CC(=O)[O-])CCN(CC(=O)[O-])CC2)cc1C(C)C.[177Lu+3] (mixture of isomers) | – | mouse, HT-29 xenograft | 168 h post injection, biodistribution | reference: tumour over liver uptake | tumour-to-liver ratio | 6.01
CC(C)(O)c1ncc([S@](N)(=O)=NC(=O)Nc2c3c(cc4c2CCC4)CCC3)s1 | – | healthy human | oral, 10 mg single dose, capsule formulation | – | nervous system adverse events | 17%
CN1CCC[C@]1(C)/C=C/S(=O)(=O)NC(=O)Nc1c2c(cc3c1CC(O)C3)CCC2 (stereo partly shown) | – | human, plasma | oral, 12.5 mg twice daily of parent drug, metabolite of dosed drug | reference: day 14 over day 1 | AUC(0-tau) accumulation ratio | 2.6
O=C(Nc1cnccc1-c1ccc([18F])cc1)c1ccnc(NC(=O)C2CC2)c1 | ex vivo gamma counting | GSK-3β transgenic mice, early-stage, cerebellum | intravenous, 120 min, mean, P-gp inhibitor pretreatment, together with: tariquidar 15 mg/kg iv | – | SUV | 0.24

Repeated from above:
SMILES | test | system | setting | how to read | endpoint | result
CCCC[C@H](NC(=O)COCCOCCNC(=O)CN1CCN(CC(=O)O)CCN(CC(=O)O)CC1)C(=O)N[C@H]1CC(=O)NCCCC[C@@H](C(N)=O)NC(=O)[C@H](Cc2c[nH]c3ccccc23)NC(=O)[C@H](CCCNC(=N)N)NC(=O)[C@@H](Cc2ccccc2)NC(=O)[C@H](Cc2c[nH]cn2)NC1=O [fluorine-18 labelled] | – | C57 mice B16/F10 melanoma, urine | intravenous, dose not given, 1 h, together with: NDP-MSH 10 µg blockade | – | urinary excretion | 77.8 ± 3.5%
COc1cc2ncnc(Oc3ccc(Nc4nccc5[nH]cc(-c6ccc(F)cc6)c(=O)c45)cc3F)c2cc1OC | – | male beagle dog, plasma | intravenous, 2 mg/kg | – | half-life | 495 min
Cc1n[nH]c(C)c1CCCOc1cc(C(=O)NCCCCC(NC(=O)CN2CCN(CC(=O)[O-])CCN(CC(=O)[O-])CCN(CC(=O)[O-])CC2)C(=O)NCC2CCC(C(=O)NC(Cc3ccc4ccccc4c3)C(=O)NCCCCC(NC(=O)NC(CCC(=O)O)C(=O)O)C(=O)O)CC2)ccc1F.[68Ga+3] (stereo not shown) | PET/CT | mice with 22Rv1 tumours | 2 h post-injection, no blocking | – | tumour uptake | 13.9 ± 2.68 %ID/g
COC1C=COC2(C)Oc3c(C)c(O)c4c(c3C2=O)C2=NC3(CCN(CC(C)C)CC3)NC2=C(NC(=O)C(C)=CC=CC(C)C(O)C(C)C(O)C(C)C(OC(=O)c2cccnc2)C1C)C4=O (stereo not shown) | – | CD-1 mouse female, plasma | intravenous, 5 mg/kg | – | clearance | 2.98 mL/min/kg
